Measurements from different studies.
Every numbered part comes from another study and shows a few of its results, in no order.
UniProt P09619, sequence (whole entry, looked up): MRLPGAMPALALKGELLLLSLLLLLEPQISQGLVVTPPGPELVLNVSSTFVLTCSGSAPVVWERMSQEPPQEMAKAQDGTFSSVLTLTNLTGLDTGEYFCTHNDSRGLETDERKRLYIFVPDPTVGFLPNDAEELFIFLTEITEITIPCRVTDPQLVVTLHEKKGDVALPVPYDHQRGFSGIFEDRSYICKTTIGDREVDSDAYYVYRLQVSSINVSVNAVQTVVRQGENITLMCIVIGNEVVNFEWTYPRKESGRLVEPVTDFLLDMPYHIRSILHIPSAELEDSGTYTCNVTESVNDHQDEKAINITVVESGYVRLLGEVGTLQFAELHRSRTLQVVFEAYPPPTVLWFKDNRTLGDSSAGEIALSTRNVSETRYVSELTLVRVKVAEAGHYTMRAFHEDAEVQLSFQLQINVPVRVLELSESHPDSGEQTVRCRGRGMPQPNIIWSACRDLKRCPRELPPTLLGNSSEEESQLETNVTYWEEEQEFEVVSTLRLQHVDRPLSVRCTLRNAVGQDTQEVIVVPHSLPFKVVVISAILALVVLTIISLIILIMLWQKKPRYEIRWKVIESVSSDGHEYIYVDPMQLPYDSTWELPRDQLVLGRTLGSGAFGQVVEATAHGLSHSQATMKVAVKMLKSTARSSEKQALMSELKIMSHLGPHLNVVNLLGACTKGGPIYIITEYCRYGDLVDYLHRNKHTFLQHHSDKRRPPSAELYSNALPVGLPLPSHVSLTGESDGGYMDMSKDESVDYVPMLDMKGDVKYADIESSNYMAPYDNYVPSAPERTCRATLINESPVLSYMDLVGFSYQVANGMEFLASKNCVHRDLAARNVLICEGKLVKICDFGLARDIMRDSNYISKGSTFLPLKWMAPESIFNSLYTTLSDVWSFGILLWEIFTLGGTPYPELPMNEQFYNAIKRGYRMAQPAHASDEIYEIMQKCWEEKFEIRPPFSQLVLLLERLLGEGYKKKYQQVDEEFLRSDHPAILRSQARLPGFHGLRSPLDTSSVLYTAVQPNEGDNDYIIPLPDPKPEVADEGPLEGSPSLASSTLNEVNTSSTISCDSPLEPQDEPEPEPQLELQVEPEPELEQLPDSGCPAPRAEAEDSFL
UniProt Q8TD08, sequence (whole entry, looked up): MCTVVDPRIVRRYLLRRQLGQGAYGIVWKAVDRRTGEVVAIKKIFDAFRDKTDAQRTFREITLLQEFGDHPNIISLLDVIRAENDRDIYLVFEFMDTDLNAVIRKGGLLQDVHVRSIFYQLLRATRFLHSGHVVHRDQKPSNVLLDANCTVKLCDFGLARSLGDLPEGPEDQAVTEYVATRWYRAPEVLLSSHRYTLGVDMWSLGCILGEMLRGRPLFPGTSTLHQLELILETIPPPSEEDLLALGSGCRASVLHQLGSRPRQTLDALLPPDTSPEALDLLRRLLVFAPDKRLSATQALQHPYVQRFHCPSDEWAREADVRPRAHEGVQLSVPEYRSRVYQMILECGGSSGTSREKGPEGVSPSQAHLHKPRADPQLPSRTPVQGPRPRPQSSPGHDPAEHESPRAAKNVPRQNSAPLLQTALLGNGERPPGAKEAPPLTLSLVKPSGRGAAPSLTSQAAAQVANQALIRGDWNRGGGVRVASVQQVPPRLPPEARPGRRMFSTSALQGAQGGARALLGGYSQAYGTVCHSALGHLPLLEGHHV
UniProt P10721, sequence (whole entry, unmodified, looked up): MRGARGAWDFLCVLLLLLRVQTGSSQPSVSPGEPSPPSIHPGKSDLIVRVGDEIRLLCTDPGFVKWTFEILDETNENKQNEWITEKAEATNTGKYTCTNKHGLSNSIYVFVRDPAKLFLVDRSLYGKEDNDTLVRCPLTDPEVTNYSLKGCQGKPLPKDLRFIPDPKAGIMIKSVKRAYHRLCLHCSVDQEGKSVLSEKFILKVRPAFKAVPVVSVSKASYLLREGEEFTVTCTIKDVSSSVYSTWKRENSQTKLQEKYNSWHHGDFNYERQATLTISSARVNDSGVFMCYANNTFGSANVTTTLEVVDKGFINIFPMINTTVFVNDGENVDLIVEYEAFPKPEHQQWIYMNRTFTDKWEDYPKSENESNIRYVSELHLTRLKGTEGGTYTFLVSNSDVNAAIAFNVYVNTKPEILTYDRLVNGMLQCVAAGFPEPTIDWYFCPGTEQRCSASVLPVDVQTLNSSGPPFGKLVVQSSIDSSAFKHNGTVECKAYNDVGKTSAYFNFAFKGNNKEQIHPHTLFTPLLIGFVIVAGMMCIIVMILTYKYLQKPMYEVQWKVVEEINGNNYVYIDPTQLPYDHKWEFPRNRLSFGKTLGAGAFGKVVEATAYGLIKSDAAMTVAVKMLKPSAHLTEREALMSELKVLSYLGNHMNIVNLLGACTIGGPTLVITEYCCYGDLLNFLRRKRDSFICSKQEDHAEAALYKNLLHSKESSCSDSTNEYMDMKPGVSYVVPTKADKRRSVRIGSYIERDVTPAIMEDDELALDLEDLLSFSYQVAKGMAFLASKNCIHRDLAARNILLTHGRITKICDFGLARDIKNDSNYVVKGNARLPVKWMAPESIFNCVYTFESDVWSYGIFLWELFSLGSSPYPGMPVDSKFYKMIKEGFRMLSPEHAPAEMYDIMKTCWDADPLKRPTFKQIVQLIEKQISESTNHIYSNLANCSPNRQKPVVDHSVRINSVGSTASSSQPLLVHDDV
UniProt O14733, sequence (whole entry, looked up): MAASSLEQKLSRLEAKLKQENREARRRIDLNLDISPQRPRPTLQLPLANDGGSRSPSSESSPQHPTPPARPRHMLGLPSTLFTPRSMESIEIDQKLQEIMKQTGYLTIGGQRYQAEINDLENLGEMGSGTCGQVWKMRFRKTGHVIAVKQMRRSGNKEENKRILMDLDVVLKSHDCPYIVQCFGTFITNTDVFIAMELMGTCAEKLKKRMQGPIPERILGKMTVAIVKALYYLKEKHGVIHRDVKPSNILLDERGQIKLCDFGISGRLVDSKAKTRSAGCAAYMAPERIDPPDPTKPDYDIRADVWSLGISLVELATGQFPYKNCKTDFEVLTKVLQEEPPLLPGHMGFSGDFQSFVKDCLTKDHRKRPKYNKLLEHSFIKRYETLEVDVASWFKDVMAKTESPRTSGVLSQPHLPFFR
UniProt O43283, sequence (whole entry, looked up): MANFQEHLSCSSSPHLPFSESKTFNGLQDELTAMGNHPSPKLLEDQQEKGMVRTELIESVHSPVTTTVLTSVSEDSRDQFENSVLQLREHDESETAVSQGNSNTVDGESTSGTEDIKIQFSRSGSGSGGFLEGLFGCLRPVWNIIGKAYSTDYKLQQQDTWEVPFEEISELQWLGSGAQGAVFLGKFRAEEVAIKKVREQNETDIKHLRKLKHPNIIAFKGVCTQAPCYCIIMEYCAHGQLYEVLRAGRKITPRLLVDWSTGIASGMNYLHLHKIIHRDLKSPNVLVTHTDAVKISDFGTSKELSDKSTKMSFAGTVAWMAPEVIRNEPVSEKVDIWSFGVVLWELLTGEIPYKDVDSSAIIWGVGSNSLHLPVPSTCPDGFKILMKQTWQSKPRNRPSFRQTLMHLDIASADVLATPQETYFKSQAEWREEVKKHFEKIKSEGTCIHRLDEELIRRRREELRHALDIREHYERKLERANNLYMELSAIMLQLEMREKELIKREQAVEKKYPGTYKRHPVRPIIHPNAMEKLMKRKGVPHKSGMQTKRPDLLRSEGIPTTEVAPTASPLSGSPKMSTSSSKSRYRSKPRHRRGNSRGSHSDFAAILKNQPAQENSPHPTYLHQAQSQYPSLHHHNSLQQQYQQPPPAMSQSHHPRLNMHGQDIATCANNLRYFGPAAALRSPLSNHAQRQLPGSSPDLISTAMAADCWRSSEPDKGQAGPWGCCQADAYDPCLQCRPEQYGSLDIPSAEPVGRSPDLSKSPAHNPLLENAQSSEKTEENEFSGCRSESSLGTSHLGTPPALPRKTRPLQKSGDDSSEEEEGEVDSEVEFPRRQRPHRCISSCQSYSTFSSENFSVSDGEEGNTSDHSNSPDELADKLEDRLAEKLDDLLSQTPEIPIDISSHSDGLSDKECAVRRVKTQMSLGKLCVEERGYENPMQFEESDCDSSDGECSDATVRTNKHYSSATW
UniProt P45983, sequence (whole entry, looked up): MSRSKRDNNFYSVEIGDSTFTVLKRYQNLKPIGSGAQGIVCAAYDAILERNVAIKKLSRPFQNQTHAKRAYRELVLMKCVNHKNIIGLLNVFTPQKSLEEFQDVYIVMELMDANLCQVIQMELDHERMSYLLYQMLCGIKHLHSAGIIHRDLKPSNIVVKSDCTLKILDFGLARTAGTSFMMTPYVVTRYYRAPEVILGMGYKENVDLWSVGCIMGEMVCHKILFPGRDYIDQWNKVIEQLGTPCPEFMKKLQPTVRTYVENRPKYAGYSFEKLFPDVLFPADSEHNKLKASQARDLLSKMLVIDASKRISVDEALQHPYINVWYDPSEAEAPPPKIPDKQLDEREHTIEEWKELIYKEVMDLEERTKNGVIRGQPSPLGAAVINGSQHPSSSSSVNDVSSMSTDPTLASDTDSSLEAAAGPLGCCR

Set 1 — read-out: cell-free assay; technique: competition with immobilised ligand; tested at: 1 µM
Structure (SMILES): CCS(=O)(=O)c1cc2cc(C[C@@](O)(CC(C)(C)c3ccc(F)cc3C(N)=O)C(F)(F)F)[nH]c2cn1
target | remaining binding [%]
MAP3K13 (Homo sapiens, UniProt O43283) | 82
EGFR (Homo sapiens, UniProt P00533, L858R) | 90
MAPK8 (Homo sapiens, UniProt P45983) | 98
PDGFRB (Homo sapiens, UniProt P09619) | 100
KIT (Homo sapiens, UniProt P10721, A829P) | 73
MAP2K7 (Homo sapiens, UniProt O14733) | 99
MTOR (Homo sapiens, UniProt P42345) | 100
MAPK15 (Homo sapiens, UniProt Q8TD08) | 100

Set 2 — species: mouse; medium: microsomes or S9; tested at: 2 µM; time: 0.5 h
Compound | remaining compound [%]
Cc1nn(C)cc1-c1cc(-c2cn(C)nc2C)n(CC(=O)N(C)Cc2ccn(C)n2)n1 | 98.7
COc1ccc(OCCNC(=O)c2cc(S(=O)(=O)N(C)C)c(Cl)cc2Cl)cc1 | 1.46
Cc1ccc2[nH]c3nc(N/N=C/c4cc5c(cc4Cl)OCO5)nnc3c2c1 | 57
COc1cc2c(=O)n(CCO)c(=O)n(CCCN(C)C)c2cc1OC | 72.7
O=C(Nc1ccc2c(c1)OCO2)C1CCN(Cc2nnc(-c3ccc(Br)s3)o2)CC1 | 2.27
Clc1ccc(C2=Nc3c(nnn3Cc3ccccc3)C3=NCCN23)cc1 | > 100
C[C@@H]1C[C@H]2[C@@H]3CCC4=CC(=O)C=C[C@]4(C)C3(F)[C@@H](O)C[C@]2(C)[C@@]1(O)C(=O)CO (stereo partly shown) | 88.8
Cc1ccc2c(c1)N(C(=O)c1cccc(F)c1)CC(C)O2 (stereo not shown) | 1.85
Cc1c(CC(=O)O)c2c(n1-c1ccc(Br)cc1)CC(C)(C)CC2=O | 70.3

Set 3 — cell line: HaCaT; tested at: 100 µM; time: 36 h
SMILES | viability [%]
CC(C)(C)NCC(O)c1ccc(O)c(CO)c1 (stereo not shown) | 80.9
Cc1cccc(CN2CCN(C(c3ccccc3)c3ccc(Cl)cc3)CC2)c1 (stereo not shown) | 66.8
O=c1[nH]c(=O)n([C@H]2C[C@H](O)[C@@H](CO)O2)cc1F | 36.1
Cc1ccccc1N1C(=O)c2cc(S(N)(=O)=O)c(Cl)cc2NC1C (stereo not shown) | 75.6
CC(=O)Nc1ccc(OC(=O)c2ccccc2OC(C)=O)cc1 | 85.9

Set 4 — read-out: enzyme activity; mode: inhibitor; tested at: 0.5 µM; baseline: control
Target: Phosphorylase b kinase gamma catalytic chain, liver/testis isoform (PHKG2, Homo sapiens, UniProt P15735)
Target sequence (P15735 1-406): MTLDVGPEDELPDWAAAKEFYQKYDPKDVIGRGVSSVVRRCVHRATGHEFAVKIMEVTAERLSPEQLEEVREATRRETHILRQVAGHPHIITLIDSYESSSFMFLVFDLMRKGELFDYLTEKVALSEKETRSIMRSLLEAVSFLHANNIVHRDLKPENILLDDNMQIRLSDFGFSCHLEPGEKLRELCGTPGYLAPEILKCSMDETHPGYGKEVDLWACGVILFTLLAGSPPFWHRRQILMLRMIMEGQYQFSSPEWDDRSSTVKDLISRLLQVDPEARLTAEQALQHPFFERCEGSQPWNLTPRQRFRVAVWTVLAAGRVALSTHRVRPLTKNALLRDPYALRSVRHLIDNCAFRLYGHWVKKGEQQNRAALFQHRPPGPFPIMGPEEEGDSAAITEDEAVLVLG
SMILES | remaining activity [%]
Cn1sc(=O)n(Cc2ccccc2)c1=O | 90.6
O=C(O)c1ccc2c3c1cccc3c(=O)n1c3ccccc3nc21 | 94.7
Nc1[nH]nc2nc3ccccc3nc12 | 96.6
Cc1ccc(NC(=O)c2ccc(CN3CCN(C)CC3)cc2)cc1Nc1nc(-c2cccnc2)cs1 | 69.1
CCOC(=O)c1c(C)[nH]c(/C=C2\C(=O)Nc3ccccc32)c1C | 96.2
COc1cc2ncnc(Nc3ccc(F)c(Cl)c3)c2cc1OCCCN1CCOCC1 | 93.9
CN(C)c1ccc(C=C2C(=O)Nc3ccccc32)cc1 | 95.9
O=C1NC(=O)C(c2cn(CCCO)c3ncccc23)=C1c1cnccn1 | 102
OCC(O)CCON=C1C(c2c(O)[nH]c3ccccc23)=Nc2ccccc21 (stereo not shown) | 34.9
Cc1cccc(-c2[nH]c(C(C)(C)C)nc2-c2ccc3c(c2)OCO3)n1 | 107
Cn1c2ccccc2c2c3c(c4c5ccccc5n(CCC#N)c4c21)CNC3=O | 8.4
O=C1NC(=O)C(c2cn(CCCn3ccnc3)c3ccccc23)=C1Nc1ccccc1 | 107
O=S(=O)(c1cccc2cnccc12)N1CCCNCC1 | 95.4
O=C(CCCc1ccc(-c2ccccc2F)cc1)Nc1ccc(O)cc1 | 102
COc1cc2ncnc(Nc3ccc(Oc4ccccc4)cc3)c2cc1OC | 100

Repeated from above (set 1):
target | remaining binding [%]
PDGFRB (Homo sapiens, UniProt P09619) | 100
KIT (Homo sapiens, UniProt P10721, A829P) | 73
MAP2K7 (Homo sapiens, UniProt O14733) | 99
MTOR (Homo sapiens, UniProt P42345) | 100
MAPK15 (Homo sapiens, UniProt Q8TD08) | 100
